# Experimental data from different studies.
# Numbers after ± are the reported error.
Structure (SMILES),test,test system,setting,scale,measurement,result
CCc1c2c(nc3ccc(OC4OC(C(=O)O)C(O)C(O)C4O)cc13)-c1cc3c(c(=O)n1C2)COC(=O)C3(O)CC (centres unmarked),,"human patients, plasma","intravenous, 75 mg/m^2 of parent drug",,AUC(0-inf),583 ng·h/mL
COc1cc2ccnc(Cc3ccc(O[11CH3])c(OC)c3)c2cc1OC,,Sprague-Dawley rat,"intravenous, 5 min",,liver uptake,~32 % injected dose
CC[C@@H](C)[C@H](NC(=O)[C@H](C)NC(=O)[C@H](CCCCN)NC(=O)[C@H](CC(C)C)NC(=O)[C@H](C)NC(=O)[C@@H](NC(=O)[C@H](Cc1c[nH]cn1)NC(=O)[C@H](CC(C)C)NC(=O)[C@@H](NC(=O)[C@@H](NC(=O)[C@H](CCCCN)NC(=O)[C@H](CCCCN)NC(=O)[C@H](C)NC(=O)[C@H](CO)NC(=O)[C@H](CCCCN)NC(=O)[C@H](Cc1ccccc1)NC(=O)[C@@H](NC(=O)[C@H](CCCCN)NC(=O)[C@H](CC(C)C)NC(=O)[C@H](Cc1ccccc1)NC(=O)[C@H](CO)NC(=O)[C@H](CCCCN)NC(=O)[C@H](Cc1c[nH]c2ccccc12)NC(=O)[C@H](CCCCN)NC(C)=O)[C@@H](C)O)[C@@H](C)O)C(C)C)[C@@H](C)O)C(=O)N[C@@H](CO)C(=O)N[C@@H](CO)C(N)=O,RP-HPLC,Zorbax 300 SB-C8 column,65 °C,,retention time,16.3 min
COc1ccc(NC(=O)Cn2c(=O)c3ccccc3n(CC(=O)Nc3cc([125I])c(OC)cc3OC)c2=O)cc1,,"rat, lung","intravenous, 30 min",,tracer uptake,0.22 %ID/g
CC[C@H](C)C(=O)N1CCC(NC(=O)Nc2ccc(OC(F)(F)F)c(F)c2)CC1,,healthy volunteers,"oral, 2 mg single dose",,subjects with UTI TEAE,0%
CSCC[C@H](NC(=O)CNC(=O)[C@H](CC(=O)O)NC(=O)[C@@H](NC(=O)[C@@H](NC(=O)[C@@H](NC(=O)CNC(=O)[C@H](CCC(N)=O)NC(=O)[C@H](CCSC)NC(=O)[C@H](CC(=O)O)NC(=O)[C@H](C)NC(=O)[C@H](C)NC(=O)[C@@H](NC(=O)[C@H](CO)NC(=O)[C@@H](N)CC(C)C)[C@@H](C)O)C(C)C)C(C)C)[C@@H](C)O)C(=O)N[C@@H](C)C(=O)N[C@@H](CO)C(=O)NCC(=O)N[C@@H](CC(C)C)C(=O)N[C@@H](CC(=O)O)C(=O)N[C@@H](CCCCN)C(=O)N[C@@H](CC(=O)O)C(=O)N[C@@H](Cc1ccc(O)cc1)C(=O)N[C@@H](CC(C)C)C(=O)N[C@@H](CCCCN)C(=O)N1CCC[C@H]1C(=O)N[C@@H](CC(=O)O)C(=O)N[C@@H](CC(=O)O)C(=O)O,,"human, serum","intravenous, 3.33 mg/kg, patients, infusion",,Cmax,9.8 µg/mL
O=c1oc2c(CNCCc3cccc(F)c3)c(O)ccc2c2c1CCC2,,porcine brain lipid,"100 µg/mL, 18 h, pH 7.4",,permeability (Pe),5 ± 0.3 ×10⁻⁶ cm/s
CC(=CCC(O)C(C)=Cc1csc(C)n1)CC=CC(C)C(O)C(C)C(=O)C(C)(C)C(O)CC(=O)O (centres unmarked),,"human, plasma","intravenous infusion, 11.3 mg/m2 KOS-1584, 3 h infusion, cycle 1",,half-life,44 ± 15.9 h
CC[C@H](C)[C@H](NC(=O)[C@H](CCCNC(=N)N)NC(=O)[C@H](CCCCN)NC(=O)[C@H](CC(C)C)NC(=O)[C@H](CC(C)C)NC(=O)CNC(=O)[C@H](Cc1c[nH]cn1)NC(=O)[C@@H](NC(=O)[C@@H](N)C(C)C)[C@@H](C)CC)C(=O)N[C@@H](CCCCN)C(=O)N[C@H](C(=O)N[C@@H](CC(C)C)C(=O)N[C@@H](CC(C)C)C(N)=O)[C@@H](C)O,haemolysis,human red blood cells,1 h,,HD10,4 µM
CN(C)c1ccc(C(=O)NCCCCN2CCN(c3ccccc3O[11CH3])CC2)cc1,,"male Sprague Dawley rat, liver","iv, dose not given, together with: cyclosporin A pretreatment",reference: cyclosporin A over untreated,uptake ratio,0.96
COC(=O)C[C@](O)(CCCC(C)(C)OC(C)=O)C(=O)O[C@@H]1C(OC)=C[C@]23CCCN2CCc2cc4c(cc2[C@H]13)OCO4,,"CD1 mouse, lung","subcutaneous, 1 mg/kg, 0.5 h",,tissue concentration,346 ng/mL
CC[C@H](C)[C@H](NC(=O)[C@H]1CCC[C@@H]1NC(=O)[C@H](CCCCN)NC(=O)[C@H](CCCCN)NC(=O)C[C@H](C)NC(=O)[C@@H](NC(=O)[C@H](CCCCN)NC(=O)[C@H]1CCC[C@@H]1NC(=O)[C@H](CC(C)C)NC(=O)CN)C(C)C)C(=O)N[C@@H](CCCCN)C(=O)N[C@@H](CCCCN)CC(=O)N[C@@H](Cc1ccccc1)C(N)=O,RP-HPLC C18,,hydrophobicity,,retention time,13.5 ± 0.02 min
COc1cc(C(=O)NCCOCCOCCOCCNC(=O)c2ccc([18F])nc2)ccc1NC(=O)C1NC(CC(C)(C)C)C(C#N)(c2ccc(Cl)cc2F)C1c1cccc(Cl)c1F (centres unmarked),,"athymic male mice, HepG2 xenograft",2 h,reference: tumour over muscle,tumour-to-tissue ratio,2.46 ± 0.74
C=Cc1cc(O)cc2nc(-c3ccc(O)c([76Br])c3)oc12,,"female C57BL/6 mouse, uterus","1 h, high dose, together with: estradiol 20 µg blocking",,tissue uptake,0.33 ± 0.22 %ID/g
Cc1ccc(/C=C/C(=O)O)cc1-c1cc2c(cc1C)C(C)(C)CCC2(C)C,,"Sprague-Dawley rat, male","oral, 100 mg/kg, 1 h, sesame oil vehicle",,blood cholesterol,100 ± 16.1 mg/dL
C(#Cc1cncc(OC[C@@H]2CCN2)c1)c1ccccc1,,"Sprague-Dawley rat, plasma","oral, 75 mg/kg",,AUC,7050 ng·h/mL
CC(C)C[C@H](NC(=O)[C@H](CCCCN)NC(=O)[C@H](CCC(=O)O)NC(=O)[C@H](C)NC(=O)[C@@H](NC(=O)[C@H](CCCCN)NC(=O)[C@H](CC(=O)O)NC(=O)[C@H](Cc1ccc(O)cc1)NC(=O)[C@H](Cc1ccccc1)NC(=O)[C@H](C)NC(=O)[C@H](CCCCN)NC(=O)[C@H](CC(C)C)NC(=O)[C@H](Cc1c[nH]c2ccccc12)NC(=O)[C@@H](N)CC(=O)O)C(C)C)C(=O)N[C@@H](CCCCN)C(=O)N[C@@H](CCC(=O)O)C(=O)N[C@@H](C)C(=O)N[C@@H](Cc1ccccc1)C(=O)N1CCC[C@H]1C(=O)N[C@@H](CC(=O)O)C(=O)N[C@@H](Cc1c[nH]c2ccccc12)C(=O)N[C@@H](C)C(=O)N[C@@H](CCCCN)C(=O)N[C@@H](C)C(=O)N[C@@H](C)C(=O)N[C@@H](Cc1ccc(O)cc1)C(=O)N[C@@H](CC(=O)O)C(=O)N[C@@H](CCCCN)C(=O)N[C@@H](C)C(=O)N[C@@H](C)C(=O)N[C@@H](CCC(=O)O)C(=O)N[C@@H](CCCCN)C(=O)N[C@@H](C)C(=O)N[C@@H](CCCCN)C(=O)N[C@@H](CCC(=O)O)C(=O)N[C@@H](C)C(=O)N[C@@H](C)C(=O)O,,"cynomolgus monkey female, plasma","intravenous infusion, 8 mg/kg every other day, day 27",,Cmax,159 µg/mL
O=C(O)CCC(NP(=O)(O)OCCC[C@@H](NC(=O)CCC(NC(=O)CCCCCNC(=O)CCCCCNC(=O)c1ccc([18F])cc1)C(=O)O)C(=O)O)C(=O)O (some centres unmarked),radioactivity,"mouse, CWR22Rv1 xenograft, tumour",1 h,,tumour uptake,2.92%
CC(=O)CCC1C(=O)NC(C(C)C)C(=O)NC(Cc2cc(O)cc(F)c2)C(=O)N2CCCC(N2)C(=O)OC(C(C)=CC=CC(=O)N2CCCCO2)CC=CC=CC(O)C(C)C1O (centres unmarked),dialysis,human plasma,"1 µM, 5 h, 37 °C",,unbound fraction,0.22
COc1ccc(N=Nc2ccc(NC(=O)CCCCCCC(=O)NO)cc2)cc1,1H NMR,DMSO,irradiation 365 nm,,cis isomer content,97%
COc1ccc(C)cc1NC(=O)OC1CC2CCCC(C1)N2Cc1ccc(CC[18F])cc1 (centres unmarked),,"BALB/c mice, EMT6 tumour, heart",1 h,,tissue uptake,2.13 ± 0.45 %ID/g
CN[C@](C)(C[18F])C(=O)O,,"mouse, bone","1 h, tumour-bearing",,tracer uptake,1.9 %ID/g
CCN(CC)c1ccc2c(-c3ccccc3C(=O)OCCOCC[18F])c3ccc(=[N+](CC)CC)cc-3oc2c1,PET imaging,"rat, liver","dose not given, 55 min post injection",reference: value at 5 min,liver radioactivity,25%
CC(C)[C@H](NC(=O)CNC(=O)[C@H](CCC(N)=O)NC(=O)[C@H](C)N)C(=O)O,Definitely drug-related,human,"30 mg/kg, 3 days, thrice daily dosing",,subjects with adverse events,0%
N=C(N)NCCC[C@@H]1NC(=O)[C@H](Cc2c[nH]c3ccccc23)NC(=O)[C@@H](CC2CCCCC2)NC(=O)[C@@H]2CCCN2C(=O)[C@@H](NC(=O)CCc2ccccc2)CCCNC1=O,,C57BL/6J mice,"subcutaneous, 1 mg/kg daily, up to 5 days",,toxicity,not toxic
CCCCCCCC(=O)OC[C@H](NC(=O)[C@H](CO)NC(=O)CN)C(=O)N[C@@H](Cc1ccccc1)C(=O)N[C@@H](CC(C)C)C(=O)N[C@@H](CO)C(=O)N1CCC[C@H]1C(=O)N[C@@H](CCC(=O)O)C(=O)N[C@@H](Cc1cnc[nH]1)C(=O)N[C@@H](CCC(N)=O)C(=O)N[C@@H](CCCNC(=N)N)C(=O)N[C@H](C(=O)N[C@@H](CCC(N)=O)C(=O)N[C@@H](CCC(N)=O)C(=O)N[C@@H](CCCNC(=N)N)C(=O)N[C@@H](CCCCN)C(=O)N[C@@H](CCC(=O)O)C(=O)N[C@@H](CO)C(=O)N[C@@H](CCCCN)C(=O)N[C@@H](CCCCN)C(=O)N1CCC[C@H]1C(=O)N1CCC[C@H]1C(=O)N[C@@H](C)C(=O)N[C@@H](CCCCN)C(=O)N[C@@H](CC(C)C)C(=O)N[C@@H](CCC(N)=O)C(=O)N1CCC[C@H]1C(=O)N[C@@H](CCCNC(=N)N)C(=O)O)C(C)C,,"human, both sexes, plasma","intravenous infusion, 3 µg/kg/h, 65 min infusion",,volume of distribution,0.079 ± 0.024 L/kg
O=C([O-])C[N+]12CC(=O)[O][Re-2]1[O]P(=O)([O-])C2.[C-]#[O+].[C-]#[O+].[C-]#[O+] (centres unmarked),HPLC,aqueous solution,"1 d, pH 9, room temperature",,isomer fraction at equilibrium,61%
CC[C@H](C)[C@H](NC(=O)[C@H](C)NC(=O)CNC(=O)[C@@H](N)CCSC)C(=O)N[C@@H](C)C(=O)N[C@@H](CCCCN)C(=O)N[C@@H](CCCNC(=N)N)C(=O)N[C@H](C(=O)N[C@@H](C)C(=O)N[C@@H](CCCCN)C(=O)N[C@@H](Cc1ccccc1)C(=O)NCC(=O)N[C@@H](Cc1c[nH]c2ccccc12)C(=O)N1CCC[C@H]1C(=O)N[C@@H](Cc1ccccc1)C(=O)N[C@H](C(=O)N[C@@H](CCCCN)C(=O)N[C@@H](CCCCN)C(=O)N[C@@H](Cc1ccccc1)C(=O)N[C@@H](Cc1ccc(O)cc1)C(=O)N[C@@H](CCCCN)C(=O)N[C@@H](CCC(N)=O)C(=O)N[C@H](C(=O)N[C@@H](CCSC)C(=O)N[C@@H](CCC(N)=O)C(=O)N[C@@H](Cc1ccccc1)C(=O)N[C@H](C(=O)NCC(=O)N[C@@H](CCC(N)=O)C(=O)NCC(=O)N[C@@H](Cc1c[nH]c2ccccc12)C(=O)N[C@H](C(=O)N[C@H](C(=O)N[C@@H](CC(=O)O)C(=O)N[C@@H](CCC(N)=O)C(=O)N[C@H](C(=O)N[C@@H](CCC(=O)O)C(=O)N[C@@H](CCCCN)C(=O)N[C@@H](Cc1c[nH]c2ccccc12)C(=O)N[C@@H](CC(C)C)C(=O)N[C@@H](CCCCN)C(=O)N[C@@H](CCCNC(=N)N)C(=O)N[C@@H](Cc1c[nH]cn1)C(=O)O)[C@@H](C)CC)[C@@H](C)CC)[C@@H](C)O)[C@@H](C)CC)[C@@H](C)CC)[C@@H](C)CC)C(C)C,"thermal unfolding, far-UV CD",10 mM sodium phosphate,"5-20 µM, pH 7.2",,Tm,49.1 ± 0.2 °C
CN(C)C(CNC(=O)Nc1cc(C(F)(F)F)ccc1N1CCOCC1)c1ccncc1 (centres unmarked),,"mouse, serum","intraperitoneal, 360 mg/kg single dose",,serum total CO2,12 mmol/L

# For quick reference, copied from above:
Structure (SMILES),test,test system,setting,scale,measurement,result
C(#Cc1cncc(OC[C@@H]2CCN2)c1)c1ccccc1,,"Sprague-Dawley rat, plasma","oral, 75 mg/kg",,AUC,7050 ng·h/mL
CC(C)C[C@H](NC(=O)[C@H](CCCCN)NC(=O)[C@H](CCC(=O)O)NC(=O)[C@H](C)NC(=O)[C@@H](NC(=O)[C@H](CCCCN)NC(=O)[C@H](CC(=O)O)NC(=O)[C@H](Cc1ccc(O)cc1)NC(=O)[C@H](Cc1ccccc1)NC(=O)[C@H](C)NC(=O)[C@H](CCCCN)NC(=O)[C@H](CC(C)C)NC(=O)[C@H](Cc1c[nH]c2ccccc12)NC(=O)[C@@H](N)CC(=O)O)C(C)C)C(=O)N[C@@H](CCCCN)C(=O)N[C@@H](CCC(=O)O)C(=O)N[C@@H](C)C(=O)N[C@@H](Cc1ccccc1)C(=O)N1CCC[C@H]1C(=O)N[C@@H](CC(=O)O)C(=O)N[C@@H](Cc1c[nH]c2ccccc12)C(=O)N[C@@H](C)C(=O)N[C@@H](CCCCN)C(=O)N[C@@H](C)C(=O)N[C@@H](C)C(=O)N[C@@H](Cc1ccc(O)cc1)C(=O)N[C@@H](CC(=O)O)C(=O)N[C@@H](CCCCN)C(=O)N[C@@H](C)C(=O)N[C@@H](C)C(=O)N[C@@H](CCC(=O)O)C(=O)N[C@@H](CCCCN)C(=O)N[C@@H](C)C(=O)N[C@@H](CCCCN)C(=O)N[C@@H](CCC(=O)O)C(=O)N[C@@H](C)C(=O)N[C@@H](C)C(=O)O,,"cynomolgus monkey female, plasma","intravenous infusion, 8 mg/kg every other day, day 27",,Cmax,159 µg/mL
